Results of several laboratories.
A part holds a random share of what one study measured. Changes are numbered by the printed parent chain.

Sample 1 — target: UBE2S UBC core domain (UniProt Q16763); method: yeast two-hybrid; sample: yeast; setting: mostly zero background; relative to: not given; reading: higher = stronger interaction
B1: HLTF RING domain (UniProt Q14527); chain LILSSGSDEECAICLDSLTVPVITHCAHVFCKPCICQVIQNEQPHAKCPLCRNDIHEDNLLE
B2: RNF6 RING domain (UniProt Q9Y252); chain NSIDSELGKICSVCISDYVTGNKLRQLPCMHEFHIHCIDRWLSENCTCPICRQPVLGSNIAN
B3: VPS8 RING domain (UniProt Q8N3P4); chain TRGLNPKQDYCSICLQQYKRRQEMADEIIVFSCGHLYHSFCLQNKECTVEFEGQTRWTCYKCSSSNKVGKLSE
B4: ZMYND11 RING domain (UniProt Q15326); chain DEIDWETENHDWYCFECHLPGEVLICDLCFRVYHSKCLSDEFRLRDSSSPWQCPVCRSIKKKNTNKQEM
B5: TRIM11 RING domain (UniProt Q96F44); chain LSTNLQEEATCAICLDYFTDPVMTDCGHNFCRECIRRCWGQPEGPYACPECRELSPQRNLRP
B6: CNOT4 RING domain (UniProt O95628); chain MSRSPDAKEDPVECPLCMEPLEIDDINFFPCTCGYQICRFCWHRIRTDENGLCPACRKPYPED
B7: RNF186 RING domain (UniProt Q9NXI6); chain HSGSTECDLECLVCREPYSCPRLPKLLACQHAFCAICLKLLLCVQDNTWSITCPLCRKVTAVPGGLI
B8: RNF103 RING domain (UniProt O00237); chain WPADMLHCTECVVCLENFENGCLLMGLPCGHVFHQNCIVMWLAGGRHCCPVCRWPSYKKKQPY
B9: RNF182 RING domain (UniProt Q8N6D2); chain AESQASDELECKICYNRYNLKQRKPKVLECCHRVCAKCLYKIIDFGDSPQGVIVCPFCRFETCLPDDEV
B10: NFX1 RING domain (UniProt Q12986); chain IEQLTTEKYECMVCCELVRVTAPVWSCQSCYHVFHLNCIKKWARSPASQADGQSGWRCPACQNVSAHVPNTY
Residues (chain): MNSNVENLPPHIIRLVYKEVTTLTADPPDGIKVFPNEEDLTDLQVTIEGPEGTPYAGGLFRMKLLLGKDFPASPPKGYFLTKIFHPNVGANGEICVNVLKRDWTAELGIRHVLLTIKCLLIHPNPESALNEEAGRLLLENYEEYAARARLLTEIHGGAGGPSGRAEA
Sequence	lacZ reporter activity
ASPKIFQKTKCSICNSALELPSVHFLCGHSFHQHCFESYSESDADCPTCLPENRKVMDMI (VPS11 RING domain (UniProt Q9H270))	0
FAEQPSVKLCCQLCCSVFKDPVITTCGHTFCRRCALKSEKCPVDNVKLTVVVNNI (TRAF7 RING domain (UniProt Q6Q0C0))	0
B1 (HLTF RING domain)	0
B2 (RNF6 RING domain)	0
ASEEEFQFLRCQQCQAEAKCPKLLPCLHTLCSGCLEASGMQCPICQAPWPLGADTP (PML RING domain (UniProt P29590))	0
B3 (VPS8 RING domain)	0
B4 (ZMYND11 RING domain)	0
B5 (TRIM11 RING domain)	0
B6 (CNOT4 RING domain)	0
LVKDFNPYITCYICKGYLIKPTTVTECLHTFCKTCIVQHFEDSNDCPRCGNQVHETNPLE (PCGF5 RING domain (UniProt Q86SE9))	0
B7 (RNF186 RING domain)	0
FDPPLESKYECPICLMALREAVQTPCGHRFCKACIIKSIRDAGHKCPVDNEILLENQLFP (TRAF6 RING domain (UniProt Q9Y4K3))	0
B8 (RNF103 RING domain)	0
B9 (RNF182 RING domain)	0
B10 (NFX1 RING domain)	0

Sample 2 — target: MAFF, bZIP domain (human); method: DHFR protein complementation; sample: yeast; relative to: wild-type JUN-FOS pair; reading: higher = stronger binding
Setting: single substitutions, most at no-binding floor
Starting sequence: JUN, bZIP domain (human); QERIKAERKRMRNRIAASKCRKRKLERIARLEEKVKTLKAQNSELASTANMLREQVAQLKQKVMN; partner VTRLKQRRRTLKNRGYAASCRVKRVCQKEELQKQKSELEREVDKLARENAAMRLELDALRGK
Variant	binding fitness [natural log]
A49I	-1.33
R30I	-1.42
K36G	-1.49
K34P	-1.53
K36H	-1.42
A29M	-1.44
V35K	-1.56
M51K	-1.23
R30A	-1.25
R53Q	-1.39
Q55I	-1.45
T48I	-1.37
I28V	-1.33
Q58P	-1.41
V56L	-1.31
M51V	-1.37

Sample 3 — method: RNA Bind-n-Seq; form: RNA; sample: in vitro; tested at: 100 nM; relative to: input RNA pool; reading: higher = stronger binding
Target: RING finger protein unkempt homolog, zinc fingers 1-6, SBP tag (UNK, Homo sapiens, UniProt Q9C0B0, residues 30-357)
Chain of UniProt Q9C0B0 (30-357, looked up): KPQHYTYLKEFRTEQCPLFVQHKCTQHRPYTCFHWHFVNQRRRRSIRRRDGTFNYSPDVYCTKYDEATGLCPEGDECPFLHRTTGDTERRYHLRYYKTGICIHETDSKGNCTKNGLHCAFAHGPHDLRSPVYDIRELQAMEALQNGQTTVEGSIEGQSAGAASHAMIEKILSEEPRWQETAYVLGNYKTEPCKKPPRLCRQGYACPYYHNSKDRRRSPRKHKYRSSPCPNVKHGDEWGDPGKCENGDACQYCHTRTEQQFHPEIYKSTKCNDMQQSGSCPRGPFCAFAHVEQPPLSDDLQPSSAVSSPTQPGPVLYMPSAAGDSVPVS
Setting: RNA with constant flanks, vertebrate orthologous sites, ends assumed
Constant ends, left off below: GGGAGUUCUACAGUCCGACGAUC … CAACAGAGGAUUGAGCAUCA
Oligonucleotide	bound/input enrichment
ACGUAUUUAUACUGGCCAAACAUUUCUGACUUUGUAUUUCUUUGUCCUUUUUUGGUAGUUGGCGUUGUUUCCCCGCACCAUUUUUAUGUCUCCUUCACUGAAGGGCUAGAGUUUUAACUU	0.449 ratio
UUACAGUCAUUGAUGGACUCUAUUUUUUUAUUAUUACUUGGACCUUGGUCGUUUUUAUACUAGCAAAAUGUCUUGUUUUAAUUUGUGUUUUUUUUGGGGGGGGGAGGGAGUGAACUUGCU	2.46 ratio
UUUUAUUGGAUCAGGUCUGUAAAUGUGUACUAAAAAAUCAGAGUUUAUUUAUAAACAGAAUAGUUUAUUUAAAGAGAAGUUCCUCAUUGAUAUUGUGAUAUGCAUUAAUUCCAUUUGUUA	0.271 ratio
AAAUAUCCCAGUUUACUGUGUUGAGUUGGCAUUGUACAGAAAUAAACAGCCAUAUUGGUCUAGAAACGUUAAACUUAAUUUUUUUCCAUUUGUACAGGGGUAACGCACUGUAUUAAAUAU	0.779 ratio
AGCAACCCAAGGAUUCAGGACUGACCUUAUAAAUACACCAAGUAGAUAUGGAACUAACAAUAGAAUUGGACAACCAAGACCUUAGUGUACUCUGUUUUUAUAAGGAAUUUUGACUCCUUG	0.586 ratio
AUAGUGUUCAUUGUACUGCAACAAUCAUCCUACAUCUGAGCUAGCCACAUAAUACUCUACUAACAGAAUCGUUGAUUAUUACCUUUUAAAUCAUCUGUUUUGUCAGAUACCGGAAAUGUA	0.676 ratio
CUACACCAGAUAUUUUAACUGUUUUAAAGUUACAAACAAGCUUUGCUUUUUGCAUUUAAAUAGAAUACUUUUAUAUUGUAAGUGCUUCAGAUGUGGGGAGAUGUUAGUUUGCUCAUAUAA	1.02 ratio
CUCUUUUUGCCUUUUUAUCGCCUCAGUGAGGUAAAGACUCCCCUUGAACAUUUUUUUCAGUACUGUAGCCUGAUAUUCUUAACAGACUAUCUCAUUCCCUACAUUGUCAUGAUUUUACUA	0.574 ratio
GAAGAUGGUGGUUGUACAUUAUUCAUUUAGGAAAUAUAAAAACUCGUUUUGUUUUGAAGCUAGGUAUUAAUUGGAAUAGCUAUUAUACCUGAGAACGGGGCAGCUGUGCCCUUCCUUUGA	1.5 ratio
AAGCUCUAGUUUCUAACAACUGACACCCUAAAAGAUUUAGAAAAGGUUUACAACACAAUCUAGUUUACGAAGAAAUCUUGUGCUAGAAUACUUUUUAAAGUAUUUUUGAAUACCAUUAAA	0.481 ratio
CAACUCAAUGGUUGAGGGUUCUGAACUCAAAAAGGUUCGCUCAAACUCCAGGAUUUAUCAUCGGUACUUUUUGUUGGAUGCUGACAUGCAAAGCCUGAGGUGGGAGCCAUCUAAGAAGGA	0.189 ratio

Sample 4 — target: CCND1, cyclin fold, Cln2 fusion (human); method: yeast growth competition, sequencing; sample: yeast; setting: weak parent motif; relative to: not given; reading: higher = stronger binding
Starting sequence: MICAL3 docking peptide (human); LQLRRQLSFSEDS; partner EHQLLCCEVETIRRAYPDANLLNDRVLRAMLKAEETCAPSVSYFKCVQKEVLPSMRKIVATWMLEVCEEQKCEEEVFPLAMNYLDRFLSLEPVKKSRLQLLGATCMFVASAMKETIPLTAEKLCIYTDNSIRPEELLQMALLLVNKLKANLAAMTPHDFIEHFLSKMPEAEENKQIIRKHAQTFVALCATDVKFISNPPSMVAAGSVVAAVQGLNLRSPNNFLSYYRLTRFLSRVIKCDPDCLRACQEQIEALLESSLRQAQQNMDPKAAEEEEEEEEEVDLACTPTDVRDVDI
Variant	normalised enrichment score
LQTRRQLSFSEDS [L3T]	1.57
LQLRRQLSFEEDS [S10E]	0.851
LQLRRQLSGSEDS [F9G]	-0.109
LQLRRQLKFSEDS [S8K]	-0.088
LQLRRQLSFSENS [D12N]	0.646
LQERRQLSFSEDS [L3E]	-0.206
LQLRTQLSFSEDS [R5T]	-0.117
LQLRRQLSMSEDS [F9M]	-0.0383
LQLRRFLSFSEDS [Q6F]	-0.166
LRLRRQLSFSEDS [Q2R]	-0.0371
LQLRAQLSFSEDS [R5A]	0.0292
LQLRGQLSFSEDS [R5G]	0.155
LQLRRQLYFSEDS [S8Y]	-0.0578
LQLRRNLSFSEDS [Q6N]	0.101
LQLRRPLSFSEDS [Q6P]	0.533
LQLRRQLSFSEYS [D12Y]	0.368
LQLRQQLSFSEDS [R5Q]	0.000357
LHLRRQLSFSEDS [Q2H]	0.471
LQLRRQLSFSEVS [D12V]	0.788
LQLIRQLSFSEDS [R4I]	0.439
LQLRRSLSFSEDS [Q6S]	0.706
LQLRRQLSFSVDS [E11V]	-0.149
LQLRRQHSFSEDS [L7H]	0.124
LQLRRVLSFSEDS [Q6V]	0.676
LQLRRQLSFSADS [E11A]	0.276

Sample 5 — method: DHFR PCA, deep sequencing; sample: yeast; with: (+)-ABA 58 µM; relative to: wild-type fitted maximum; reading: higher = stronger binding
Target: ABI1, truncated, D143A, DHFR fusion (Arabidopsis thaliana)
Setting: methotrexate growth selection, single substitutions
Starting sequence: PYL1, truncated, DHFR fusion (Arabidopsis thaliana); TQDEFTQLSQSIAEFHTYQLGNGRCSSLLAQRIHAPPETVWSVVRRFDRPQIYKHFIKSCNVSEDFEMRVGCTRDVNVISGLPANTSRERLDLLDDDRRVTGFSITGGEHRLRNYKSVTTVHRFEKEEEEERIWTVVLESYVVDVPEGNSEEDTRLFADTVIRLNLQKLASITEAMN
Variant	relative binding score
N165T	11.2%
E174K	56.4%
R98W	31.8%
A175Q	88.5%
T173C	89.3%
V161W	27.5%
S140I	-14.3%
R69E	83.9%
V137G	-3.39%
H16W	-0.588%
D65Q	84.7%
S42K	97.1%
T154A	66%
I162C	64.8%
R132M	91.1%
M176D	81.6%
V44S	-3.33%
